Earlier results that unrelated publications cite.
Lines come from different studies, so protocols differ. ± marks the error that the study gave.
Sequence of UniProt P32245 (whole entry, looked up): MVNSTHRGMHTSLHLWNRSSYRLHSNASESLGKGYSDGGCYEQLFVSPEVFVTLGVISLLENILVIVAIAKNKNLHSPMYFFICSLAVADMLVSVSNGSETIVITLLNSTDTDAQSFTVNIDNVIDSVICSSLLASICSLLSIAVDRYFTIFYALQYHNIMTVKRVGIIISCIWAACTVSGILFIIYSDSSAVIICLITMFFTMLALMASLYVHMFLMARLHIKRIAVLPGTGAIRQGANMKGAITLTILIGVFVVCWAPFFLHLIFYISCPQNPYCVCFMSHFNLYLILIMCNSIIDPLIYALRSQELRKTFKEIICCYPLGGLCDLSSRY
Sequence of UniProt P02730 (whole entry, looked up): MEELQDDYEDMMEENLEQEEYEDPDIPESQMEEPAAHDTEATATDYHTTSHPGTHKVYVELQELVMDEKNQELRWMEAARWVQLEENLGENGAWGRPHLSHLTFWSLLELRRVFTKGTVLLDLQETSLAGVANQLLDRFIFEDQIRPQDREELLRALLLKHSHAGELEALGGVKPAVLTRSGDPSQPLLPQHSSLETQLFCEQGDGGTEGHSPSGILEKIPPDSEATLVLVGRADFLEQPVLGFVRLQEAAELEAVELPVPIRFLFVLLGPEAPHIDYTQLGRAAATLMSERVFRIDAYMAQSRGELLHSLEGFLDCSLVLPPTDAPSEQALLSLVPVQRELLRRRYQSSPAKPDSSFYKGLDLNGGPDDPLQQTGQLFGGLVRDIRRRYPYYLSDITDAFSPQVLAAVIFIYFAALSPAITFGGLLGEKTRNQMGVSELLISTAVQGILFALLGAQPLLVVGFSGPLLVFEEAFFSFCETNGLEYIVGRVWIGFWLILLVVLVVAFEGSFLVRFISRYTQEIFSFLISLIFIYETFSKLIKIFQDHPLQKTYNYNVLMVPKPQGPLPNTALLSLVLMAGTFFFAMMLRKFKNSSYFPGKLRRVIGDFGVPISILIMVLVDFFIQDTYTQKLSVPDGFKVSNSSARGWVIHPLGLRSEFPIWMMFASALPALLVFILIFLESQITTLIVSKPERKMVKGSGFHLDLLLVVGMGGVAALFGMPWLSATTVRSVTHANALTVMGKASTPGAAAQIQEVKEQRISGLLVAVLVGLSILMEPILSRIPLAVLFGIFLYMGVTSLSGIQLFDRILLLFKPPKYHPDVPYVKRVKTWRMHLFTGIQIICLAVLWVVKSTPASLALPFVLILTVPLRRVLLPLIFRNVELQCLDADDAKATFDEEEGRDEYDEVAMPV

For `Nc1nc2c(ncn2[C@@H]2O[C@H](COP(=O)(O)OP(=O)(O)O)[C@@H](O)[C@H]2O)c(=O)[nH]1`, the Kd was 2.5e-06 µM (K-Ras; binding).
`Nc1ncnc2c1ncn2[C@H]1C[C@H](O)[C@@H](COP(=O)(O)NP(=O)(O)OP(=O)(O)O)O1` gave a Kd of 210 ± 50 µM (DNA polymerase beta; nucleotide insertion; opposite templating guanosine).
`NC(=O)C1=CN([C@@H]2O[C@H](COP(=O)(O)OP(=O)(O)OC[C@H]3O[C@@H](n4cnc5c(N)ncnc54)[C@H](OP(=O)(O)O)[C@@H]3O)[C@@H](O)[C@H]2O)C=CC1` gave a Kd of 0.043 ± 0.016 µM (human AKR1D1 wild type; binding, fluorescence titration).
`CC[C@]1(O)C[C@@H]2CN(CCc3c([nH]c4ccccc34)[C@@](C(=O)OC)(c3cc4c(cc3OC)N(C)[C@H]3[C@@](O)(C(=O)OC)[C@H](OC(C)=O)[C@]5(CC)C=CCN6CC[C@]43[C@@H]65)C2)C1` has a Kd of ~1.9 µM (microtubules; high-affinity site).
For `CC(C)COCC(CN(Cc1ccccc1)c1ccccc1)N1CCCC1` (stereo not shown), the Kd was 80 µM (cardiac troponin C N-domain; binding; together with: cardiac troponin I switch peptide).
`O=O` has a Kd of 50 µM (FixL; binding, spectroscopy).
For `N=C(N)NCCC[C@H](NC(=O)[C@@H](Cc1ccccc1)NC(=O)[C@H](Cc1c[nH]cn1)NC(=O)COCC(=O)NCCCOCCOCCOCCCNC(=O)CN(CCN(CCN(CC(=O)O)CC(=O)O)CC(=O)O)CC(=O)O)C(=O)N[C@@H](Cc1c[nH]c2ccccc12)C(N)=O`, the Kd was 9.1 µM (MC4R (Homo sapiens, UniProt P32245); binding; HEK293 transiently expressing MC4R; together with: MSH blocking non-specific binding).
For `Cc1c(OCC(F)(F)F)ccnc1C[S+]([O-])c1nc2ccccc2[nH]1` (stereo not shown), the Kd was 0.83 ± 0.18 µM (paired helical tau filaments; radioligand binding).
`VEGF` has a Kd of 2 µM (neuropilin-1).
With `Nc1ncnc2c1ncn2[C@@H]1O[C@H](COP(=O)(O)OP(=O)(O)OP(=O)(O)O)[C@@H](O)[C@H]1O` the Kd was 2.4 ± 0.24 µM (CFTR NBD1; binding, SPR or ITC).
`O=P(O)(O)O[C@@H]1[C@H](O)[C@H](O)[C@@H](OP(=O)(O)O)[C@H](OP(=O)(O)O)[C@H]1O` gave a Kd of 0.089 ± 0.007 µM (IP3R1 N-terminal domain residues 1-604; binding, FP competition; 4 °C, Ca2+-free).
`O=P(O)(O)OC[C@@H](O)[C@@H](O)CO` has a Kd of 30000 µM (orotidine 5'-phosphate decarboxylase wild type; activator; pH 7.0, 25 °C, ionic strength 0.15 (NaCl), together with: FO).
For `C=CC1=C(C)c2cc3[nH]c(cc4nc(cc5[nH]c(cc1n2)c(C)c5CCC(=O)O)C(CCC(=O)O)=C4C)c(C)c3C=C`, the Kd was 0.3 ± 0.01 µM (TSPO Rhodobacter sphaeroides wild type; purified protein).
`Teicoplanin` gave a Kd of 41.5 µM (albumin; binding).
The Kd of `[I-].[K+]` is reported as 2500 to 2800 µM (SLC4A1 (Homo sapiens, UniProt P02730); binding; citrate replacing chloride; external site).
With `CC(=O)O[C@H]1C(=O)[C@@]2(C)[C@H]([C@H](OC(=O)c3ccccc3)[C@]3(O)C[C@H](OC(=O)[C@H](O)[C@@H](NC(=O)c4ccccc4)c4ccccc4)C(C)=C1C3(C)C)[C@]1(OC(C)=O)CO[C@@H]1C[C@@H]2O` the Kd was 0.027 µM (tubulin; competition binding; cross-linked microtubules; together with: Flutax-2).
`c1c[nH]cn1` gave a Kd of 14000 µM (sperm whale metmyoglobin; binding; pH 8).
With `O=[N+]([O-])c1ccc(Sc2nnc(COc3ccccc3)n2-c2ccccc2)c2ncccc12` the Kd was > 300 µM (Keap1 Kelch domain; binding, SPR).
`KEKRIKELELLLMSTENELKGQQVL (c-Myb(291-315); sequence looked up)` gave a Kd of 10 ± 2 µM (KIX domain; binding, isothermal titration calorimetry; pH 7.0, 27 °C).
`fibrinogen` has a Kd of ~0.1 µM (integrin alphaIIb beta3 (active); binding).
`O=C1Nc2ccc(Cl)cc2[C@@](C#CC2CC2)(C(F)(F)F)O1` has a Kd of 0.15 µM (HIV-1 reverse transcriptase; together with: efavirenz).
`CC(C)(COP(=O)(O)OP(=O)(O)OC[C@H]1O[C@@H](n2cnc3c(N)ncnc32)[C@H](O)[C@@H]1OP(=O)(O)O)[C@@H](O)C(=O)NCCC(=O)NCCSCC(=O)c1ccc(O)cc1` has a Kd of 0.33 µM (thioesterase (wild type); fluorescence quenching).
`O=C(O)CN(CC(=O)O)CC(=O)O` has a Kd of ~10 µM (hexahistidine tag; binding).
With `CCCCNc1ccc(C(=O)OCCN(C)C)cc1` the Kd was 0.22 µM (CNG channel; binding; closed channel state).
With `dalotuzumab` the Kd was ~0.001 µM (IGF-1R; binding).

A few entries again:
With `O=[N+]([O-])c1ccc(Sc2nnc(COc3ccccc3)n2-c2ccccc2)c2ncccc12` the Kd was > 300 µM (Keap1 Kelch domain; binding, SPR).
`c1c[nH]cn1` gave a Kd of 14000 µM (sperm whale metmyoglobin; binding; pH 8).
With `CC(=O)O[C@H]1C(=O)[C@@]2(C)[C@H]([C@H](OC(=O)c3ccccc3)[C@]3(O)C[C@H](OC(=O)[C@H](O)[C@@H](NC(=O)c4ccccc4)c4ccccc4)C(C)=C1C3(C)C)[C@]1(OC(C)=O)CO[C@@H]1C[C@@H]2O` the Kd was 0.027 µM (tubulin; competition binding; cross-linked microtubules; together with: Flutax-2).
`O=C(O)CN(CC(=O)O)CC(=O)O` has a Kd of ~10 µM (hexahistidine tag; binding).
